# Experimental data of several laboratories.
# Each line is one published result; not all experiments were run side by side. Numbers after ± are the reported error.
# APP: Amyloid-beta precursor protein (APP, Homo sapiens, UniProt P05067)
# Tripartite terminase subunit 3 C-terminal nuclease domain: Tripartite terminase subunit 3, C-terminal nuclease domain (Human betaherpesvirus 5, UniProt P16732)
# nanA: Sialidase A (nanA, Streptococcus pneumoniae, UniProt P62575)
SMILES,target or system,assay,system,setting,how to read,measurement,value
COc1ccc(N2C(=O)N(c3c(C)cccc3Cl)Cc3cnc(Nc4ccc(C5CCN(C)CC5)cc4OC)nc32)nc1,"cAMP-dependent protein kinase catalytic subunit beta (PRKACB, Homo sapiens, UniProt P22694)","kinase activity, inhibitor",,"0.5 µM, kinase PKACB",,inhibition,5.26%
C[C@@H](O)[C@@H](CO)NC(=O)[C@@H](CCCNC(=N)N)NC(=O)[C@@H]1CCCN1C(=O)[C@@H]1CSSC[C@H](NC(=O)[C@H](Cc2ccccc2)NC(=O)CN2CCN(CC(=O)O)CCN(CC(=O)O)CCN(CC(=O)O)CC2)C(=O)N[C@@H](Cc2ccc(O)cc2)C(=O)N[C@@H](Cc2ccccc2)C(=O)N[C@@H](CCC(N)=O)C(=O)N[C@@H](CC(N)=O)C(=O)N1 [gallium-68 labelled],,,"Wistar rat, pancreas","intravenous, 8 MBq, 60 min, group mean",,tissue uptake,0.14 %ID/g
COc1ccc(S(=O)(=O)Oc2ccc3c(c2)Oc2nc4c(c(N)c2C3c2cccc(OC)c2)CCCC4)cc1 (stereo not drawn),APP,"Aβ42 self-aggregation, inhibitor, thioflavin T fluorescence",,100 µM,,inhibition,81%
O=c1[nH]c2scc(-c3ccccc3)c2c(=O)n1O,Tripartite terminase subunit 3 C-terminal nuclease domain,"endonuclease activity, ELISA",,"20 µM, with: dsDNA",,inhibition,104%
COC1=C(N)C(=O)c2nc(-c3nc(C(=O)O)c(C)c(-c4ccc(OC)c(OC)c4O)c3N)ccc2C1=O,"Sentrin-specific protease 1 (SENP1, Homo sapiens, UniProt Q9P0U3)","cleavage, ECFP-SUMO1-YFP, SDS-PAGE",,"2 µM, with: SENP1 15 nM",,inhibition,inhibited
O=C(Nc1ccc2c(c1)B(O)OC2)c1cccc(OCc2ccc(Cl)cc2)c1,"Genome polyprotein, NS2B-NS3 protease (West Nile virus, UniProt P06935)","enzyme activity, FRET",,"50 µM, with: substrate 50 µM",,inhibition,24 ± 4%
O=C(c1ccc(Cl)cc1)N1CCN2C(=O)N(OC(=O)N3CCOc4ccccc43)C(=O)C2C1 (stereo not drawn),"sn-1-specific diacylglycerol lipase ABHD11 (ABHD11, Homo sapiens, UniProt Q8NFV4)",MS-based ABPP,SW-620 conditioned medium,"10 µM, 1 h, 37 °C","relative to: compound over DMSO, lower = more inhibition",mean protein ratio,1.11
CC[N+]1(CC)CCN(c2ccccc2)CC1,"Neuronal acetylcholine receptor subunit alpha-9 (CHRNA9, Homo sapiens, UniProt Q9UGM1)","antagonist, two-electrode voltage clamp",Xenopus laevis oocytes,"30 µM, with RAPSYN, with: acetylcholine 60 µM",,inhibition,90%
CC[C@H](C)[C@@H]1NC(=O)[C@@H]2CCCN2C(=O)[C@H](CC(C)C)NC(=O)[C@H](CC(C)C)NC(=O)CNC(=O)[C@@H](NC(=O)[C@@H](NC(=O)[C@H](CC(=O)O)NC(=O)CNC(=O)[C@@H](NC(=O)[C@H](C)NC(=O)CNC(=O)[C@H](CCCCN)NC(=O)[C@H](CC(C)C)NC(=O)[C@H](CC(C)C)NC(=O)[C@H](CCCCN)NC(=O)CNC(=O)[C@@H](NC(=O)[C@@H](N)CC(C)C)C(C)C)C(C)C)C(C)C)CSSC[C@@H](C(=O)O)NC1=O,,"RNA-seq, measured: Igfbpl1","mouse, traumatic brain injury model, frontal cortex and hippocampus",dose not given,relative to: TBI alone,log2 fold change,-2.17
O=S(=O)(Nc1ccc2c(c1)B(O)OC2)c1ccc(Cl)cc1,"Genome polyprotein, NS2B-NS3 protease (West Nile virus, UniProt P06935)","enzyme activity, FRET",,"50 µM, with: substrate 50 µM",,inhibition,≤ 10%
COc1cc2c(Oc3ccc4[nH]c(C)cc4c3F)ccnc2cc1OCC1(N)CC1,,,"sarcoma, recurrent or refractory, high-risk, paediatric","concentration not given, grade 3, whole group",,QTc interval prolongation incidence,0%
CN1CCN(c2nc(N)c3ccccc3n2)CC1,"GABA-A receptor; GABA-A site (alpha1/beta2 interface), with gamma-2 subunit (Homo sapiens, UniProt P14867+P47870)","binding, radioligand binding",,"0.1 µM, mean of two",,inhibition,6.6%
CC[C@H](C)[C@H](NC(=O)[C@H](Cc1ccccc1)NC(=O)[C@H](CCC(=O)O)NC(=O)[C@H](CCCNC(=N)N)NC(=O)[C@H](C)NC(=O)[C@H](C)NC(=O)[C@H](CCC(N)=O)NC(=O)[C@H](CCC(=O)O)NC(=O)[C@H](CCC(=O)O)NC(=O)[C@H](CC(C)C)NC(=O)[C@H](Cc1ccc(O)cc1)NC(=O)[C@H](CO)NC(=O)[C@H](CO)NC(=O)[C@@H](NC(=O)[C@H](CC(=O)O)NC(=O)[C@H](CO)NC(=O)[C@@H](NC(=O)[C@H](Cc1ccccc1)NC(=O)[C@@H](NC(=O)CNC(=O)[C@H](CCC(=O)O)NC(=O)[C@H](C)NC(=O)CCc1c[nH]cn1)[C@@H](C)O)[C@@H](C)O)C(C)C)C(=O)N[C@@H](C)C(=O)N[C@@H](Cc1c[nH]c2ccccc12)C(=O)N[C@@H](CC(C)C)C(=O)N[C@H](C(=O)N[C@@H](CCCNC(=N)N)C(=O)NCC(=O)N[C@@H](CCCNC(=N)N)C(=O)N[C@@H](CCCCNC(=O)COCCOCCNC(=O)COCCOCCNC(=O)CC[C@H](NC(=O)CCCCCCCCCCCCCCCCC(=O)O)C(=O)O)C(=O)NCC(=O)NCC(=O)N[C@@H](CO)C(=O)N[C@@H](CCCCNc1c(NCCCCCN(O)C(=O)CCC(=O)NCCCCCN(O)C(=O)CCC(=O)NCCCCCN(O)C(C)=O)c(=O)c1=O)C(=O)O)C(C)C [zirconium-89 labelled],,,"rat, stomach","iv, 3 nmol/kg, 24 h, ex vivo",,tissue uptake,0.31 %ID/g
COc1cc(/C=C/C(=O)CC(=O)/C=C/c2ccc(O)c(OC)c2)ccc1O,APP,"Aβ42 self-aggregation, inhibitor, thioflavin T fluorescence",,0.1 µM,,inhibition,6.7%
O=C(Nc1cccnn1)N1CCC(=Cc2cccc(Oc3ccc(C(F)(F)F)cn3)c2)CC1,"Adenosine receptor A1 (ADORA1, Homo sapiens, UniProt P30542)",binding,,"10 µM, with: [3H]DPCPX",,inhibition,19%
O=c1[nH]c2cc(-c3ccc(F)cc3)sc2c(=O)n1O,Tripartite terminase subunit 3 C-terminal nuclease domain,"endonuclease activity, ELISA",,"20 µM, with: dsDNA",,inhibition,93%
Cc1cc(C)cc(COc2cc3c(cc2OCc2cc(C)cc(C)c2)[C@H]2C[C@](O)(Cc4cn(CC(=O)Nc5ccc(S(=O)(=O)F)cc5)nn4)C[C@H](C)N2CC3)c1,"Rab GDP dissociation inhibitor beta, with Rab1A (Homo sapiens, UniProt P50395)","GDI2-Rab1A interaction, NanoLuc complementation",,6.25 µM,,inhibition,92.9%
C[C@H]1CN(c2n[nH]c3nc(N[C@H]4CC[C@H](NS(=O)(=O)CCC(F)(F)F)CC4)ncc23)CCO1,"Serine/threonine-protein kinase tousled-like 2 (TLK2, Homo sapiens, UniProt Q86UE8)","inhibitor, Kinobeads competition profiling",,0.16 µM,relative to: vehicle,relative abundance,1.04
O=C(Nc1ccc2c(c1)B(O)OC2)c1ccc(C(F)(F)F)cc1,"Genome polyprotein, NS2B-NS3 protease (West Nile virus, UniProt P06935)","enzyme activity, FRET",,"50 µM, with: substrate 50 µM",,inhibition,11 ± 6%
CN(C)CCNC(=O)c1ccc2c(c1)C1(CCN(CC3CC3)C1)CN2Cc1ccccc1 (stereo not drawn),Vero-E6,CellTiter-Glo ATP,,"72 h, second round 5-point","relative to: DMSO 0%, hyamine -100%, more negative, more toxic",maximum response,-3.4%
O=C(Nc1ccc2c(c1)B(O)OC2)c1cccc(OCc2ccccc2)c1,"Genome polyprotein, NS2B-NS3 protease (dengue virus type 2, UniProt P29990)","enzyme activity, FRET",dengue virus serotype 2,"50 µM, with: substrate 50 µM",,inhibition,30 ± 5%
Nc1ncnc2c1ncn2[C@@H]1O[C@H](C[C@@H](N)CC[C@H](N)C(=O)O)[C@@H](O)[C@H]1O,"Genome polyprotein, NS5 methyltransferase domain (Zika virus, UniProt Q32ZE1)","NS5 enzyme activity, inhibitor",,12.5 µM,,inhibition,79.8%
O=C(Nc1cnccc1Cl)N1CCN(Cc2ccc3c(c2)OC(F)(F)O3)CC1,"Retinoic acid receptor RXR-alpha (RXRA, Homo sapiens, UniProt P19793)","radioligand binding, inhibitor",,"10 µM, human, with: [3H]9-cis-retinoic acid",,inhibition,8%
Oc1ccc2c3c1O[C@H]1[C@@H](O)CC[C@@]4(O)[C@@H](C2)N(CC2CCC2)CC[C@]314,"Probable G-protein coupled receptor 142 (Homo sapiens, UniProt Q7Z601)","β-arrestin recruitment, TANGO luminescence, measured: GPR142",,concentration not given,relative to: basal luminescence,log2 fold change,-0.183
Nc1c2c(nc3c1C(c1ccc(Cl)c(Cl)c1)c1ccc(OCC(=O)c4ccc(Cl)cc4)cc1O3)CCCC2 (stereo not drawn),APP,"Aβ42 self-aggregation, inhibitor, thioflavin T fluorescence",,1 µM,,inhibition,47%
CC(=O)N[C@@H]1C(NC(=N)N)C[C@](OC2C(O)[C@H](Oc3ccc([N+](=O)[O-])cc3)OC(CO)[C@@H]2O)(C(=O)O)OC1[C@H](O)[C@H](O)CO (stereo partly drawn),nanA,,,"8 µM, pH 6",,inhibition,0.2 ± 0.7%
CCCCCC(=O)Nc1ccc2c(c1)B(O)OC2,"Genome polyprotein, NS2B-NS3 protease (West Nile virus, UniProt P06935)","enzyme activity, FRET",,"50 µM, with: substrate 50 µM",,inhibition,≤ 10%
CC(=O)N[C@@H]1C(N)C[C@](OCC2O[C@@H](Oc3ccc([N+](=O)[O-])cc3)C(O)C(O)[C@H]2O)(C(=O)O)OC1[C@H](O)[C@H](O)CO (stereo partly drawn),nanA,,,"8 µM, pH 6",,inhibition,4.4 ± 9.6%
Cc1csc2c(=O)n(O)c(=O)[nH]c12,Tripartite terminase subunit 3 C-terminal nuclease domain,"endonuclease activity, ELISA",,"20 µM, with: dsDNA",,inhibition,87%
Cc1ccccc1CN1C(=O)c2ccccc2Sc2ccc(C(=O)NCCCN3CCOCC3)cc21,Vero-E6,CellTiter-Glo ATP,,"72 h, retest 8-point duplicates","relative to: DMSO 0%, hyamine -100%, more negative, more toxic",maximum response,-15.6%
O=C(Nc1cccc(OS(=O)(=O)c2ccc(Cl)cc2)c1)c1ccc2ncccc2c1,"P2Y purinoceptor 1 (Meleagris gallopavo, UniProt P49652)","receptor activation, antagonist, calcium mobilization",1321N1 cells expressing P2Y1 receptor,"100 µM, with: ADP 500 nM",,inhibition,35%
Cc1ncc(C)n2nc(/C=C/c3nc(N4CCCC4)cc(N4CCOCC4)n3)nc12,PDE6 non-selective,enzyme activity,,10 µM,,inhibition,57%
CN(C(=O)n1cnc(-c2ccc[n+]([O-])c2)c1)C1CCCCC1,"dopamine D4.2 receptor, human",binding,,"10 µM, with: [3H]spiperone",,inhibition,-2%
Cc1onc(-c2ccc(F)cc2)c1C(=O)Nc1ccc2c(c1)B(O)OC2,"Genome polyprotein, NS2B-NS3 protease (dengue virus type 2, UniProt P29990)","enzyme activity, FRET",dengue virus serotype 2,"50 µM, with: substrate 50 µM",,inhibition,≤ 10%
c1ccc(C(NCCNC(c2ccccc2)c2ccccc2)c2ccccc2)cc1,"Na+/K+-ATPase, pig heart",enzyme activity,,"10 µM, Eurofins selectivity panel",,inhibition,1%
COc1cccc(C(=O)Nc2ccc3c(c2)B(O)OC3)c1,"Genome polyprotein, NS2B-NS3 protease (West Nile virus, UniProt P06935)","enzyme activity, FRET",,"50 µM, with: substrate 50 µM",,inhibition,≤ 10%
COc1cc(Nc2ncc(F)c(Nc3ccc4c(n3)NC(=O)C(C)(C)O4)n2)cc(OC)c1OC,"Tyrosine-protein kinase Fgr (FGR, Homo sapiens, UniProt P09769)",KINOMEscan,,10 µM,,inhibition,96%
O=C(Nc1ccc2c(c1)B(O)OC2)c1ccc(Oc2ccccc2)cc1,"Genome polyprotein, NS2B-NS3 protease (West Nile virus, UniProt P06935)","enzyme activity, FRET",,"50 µM, with: substrate 50 µM",,inhibition,19 ± 6%
CN1CCN(c2cc(-c3ccncc3)c(-c3ccc4ccccc4c3)nn2)CC1,"Neurotensin receptor type 1 (NTSR1, Homo sapiens, UniProt P30989)","antagonist, FLIPR",,10 µM,,inhibition,-8.4%
